# Measurements pooled from the literature.
# Every numbered part comes from another study and shows a few of its results, in no order. Changes are numbered by the printed parent chain.
# Sequence of UniProt Q13555 (whole entry, looked up): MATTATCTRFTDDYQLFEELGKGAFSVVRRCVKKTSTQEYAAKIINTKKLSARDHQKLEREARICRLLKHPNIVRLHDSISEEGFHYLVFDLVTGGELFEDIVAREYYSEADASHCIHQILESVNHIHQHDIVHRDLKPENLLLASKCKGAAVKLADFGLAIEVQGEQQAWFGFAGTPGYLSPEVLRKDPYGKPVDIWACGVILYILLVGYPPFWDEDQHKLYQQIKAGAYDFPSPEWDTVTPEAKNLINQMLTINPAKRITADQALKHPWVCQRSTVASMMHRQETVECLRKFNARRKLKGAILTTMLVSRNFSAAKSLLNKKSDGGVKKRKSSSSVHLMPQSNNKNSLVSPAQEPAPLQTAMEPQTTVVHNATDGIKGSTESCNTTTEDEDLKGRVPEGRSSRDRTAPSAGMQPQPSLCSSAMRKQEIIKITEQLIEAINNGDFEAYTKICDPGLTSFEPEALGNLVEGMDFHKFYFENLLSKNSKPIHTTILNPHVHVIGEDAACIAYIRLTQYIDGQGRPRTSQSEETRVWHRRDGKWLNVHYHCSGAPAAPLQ
# Sequence of UniProt P20309 (whole entry, looked up): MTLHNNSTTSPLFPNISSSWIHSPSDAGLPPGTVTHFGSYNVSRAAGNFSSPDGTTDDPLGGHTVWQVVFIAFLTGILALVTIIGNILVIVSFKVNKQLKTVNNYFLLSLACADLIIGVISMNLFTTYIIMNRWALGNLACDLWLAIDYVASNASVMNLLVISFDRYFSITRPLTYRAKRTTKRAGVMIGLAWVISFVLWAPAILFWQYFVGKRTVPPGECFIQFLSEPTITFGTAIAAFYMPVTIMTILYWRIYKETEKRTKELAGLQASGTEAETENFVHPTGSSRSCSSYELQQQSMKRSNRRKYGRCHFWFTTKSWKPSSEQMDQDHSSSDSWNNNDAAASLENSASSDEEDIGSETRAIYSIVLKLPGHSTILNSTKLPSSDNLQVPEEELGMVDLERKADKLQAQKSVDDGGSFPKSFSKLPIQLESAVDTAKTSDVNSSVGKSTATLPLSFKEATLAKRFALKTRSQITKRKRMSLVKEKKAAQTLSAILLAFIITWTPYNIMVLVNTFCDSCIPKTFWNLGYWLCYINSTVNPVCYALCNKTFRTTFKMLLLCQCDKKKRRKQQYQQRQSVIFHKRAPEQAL

# Sample 1
# Target: CCNB2, cyclin fold, Cln2 fusion (human)
# Technique: yeast growth competition, sequencing
# Matrix: yeast
# Notes: weak parent motif
# Baseline: not given
# Reading: higher = stronger binding
# Parent: viral docking peptide; KGVKRKLFAEDSS
Variant,normalised enrichment score
L7W,-0.114
G2W,0.783
K6Y,0.24
V3L,0.707
L7I,0.0897
V3R,0.421
K6F,0.284
S12D,1.35

# Sample 2
# Target: HLA class I histocompatibility antigen, A alpha chain, allele A*80:01 (Homo sapiens, UniProt P04439)
# Effect on: peptide-MHC binding
# Molecule type: peptide
# Tested at: concentration not given
Molecule,binding
APRRRDEEL,inactive
TMMRHRREL,inactive
TVIYRGTTF,inactive
RVIRTVREK,inactive
VVARLGVPY,inactive
FVRSSPANF,inactive
ERYPGGVSL,inactive
HQFTSNPEV,inactive

# Other studies, line by line
# Effect on: cell-free assay
SMILES,target,tested at,quantity,result
C[C@H](NC(=O)Nc1cc2[nH]ncc2c(CO)n1)c1ccccn1,"Muscarinic acetylcholine receptor M3 (CHRM3, Homo sapiens, UniProt P20309)",10 µM,inhibition,-1.84%
O=c1[nH]c2ccccc2n1C1CCN(Cc2ccc(-c3[nH]c4cc5ncnc5cc4nc3-c3ccccc3)cc2)CC1,"Calcium/calmodulin-dependent protein kinase type II subunit gamma (CAMK2G, Homo sapiens, UniProt Q13555)",0.5 µM,remaining signal,105%

# Excerpt of the above (sample 1):
Variant,normalised enrichment score
V3L,0.707
L7I,0.0897
V3R,0.421
